Measured values from different studies.

`C[C@@H]1OC(=O)NN=C1c1ccc(-c2ccc(F)cc2)c(C(F)(F)F)c1`: “patients with adverse event” 100% (phase I trial, refers to: Nausea all grades; human patients; 5 mg loading then 0.25 mg daily).
`Cn1cncc1-c1c(F)cncc1NC(=O)c1c(N)nn2cc(F)cnc12`: “patients with upper GI haemorrhage DLT” 0% (human patients; oral, 180 mg once daily, 21 days, 2 weeks on 1 week off).
`C[C@]1(O)C[C@@](N)(c2ccc(-c3nc4n(c3-c3ccccc3)COc3ccncc3-4)cc2)C1`: “patients with Stomatitis TEAE” 17.6% (human, advanced or metastatic solid tumours; dose not given, all patients, any grade).
For `Cn1nc(NS(C)(=O)=O)c2c(Cl)ccc(-n3c([C@H](Cc4cc(F)cc(F)c4)NC(=O)Cn4nc(C(F)F)c5c4C(F)(F)[C@@H]4C[C@H]54)nc4nc(OCCC(F)(F)F)ccc4c3=O)c21`, “patients with laboratory abnormality” read 0% (refers to: LDL cholesterol grade 2 increase; human; 400 mg once daily, powder in bottle).
Under “patients with serious TEAE”, `COc1ccc(-c2c(-c3ccc(C#N)c(F)c3)nc(N3CCC(N)CC3)n(C)c2=O)cc1F` is recorded as 2% (refers to: cauda equina syndrome; human patients; oral, dose not given, dose escalation).
`COc1ncnn2ccc(-c3cnc4nc(C)n(Cc5nnc([C@@H](C)F)o5)c4c3)c12`: “patients with nausea” 0% (human; oral, dose not given, grade 5).
`O=C1Nc2cc3[nH]nc(-c4ccncc4)c3cc2CN1Cc1ccccc1` — result for “patients with QTc prolongation”: 0% (CTCAE v4.03; human, relapsed or refractory advanced solid tumours; intravenous, 1.8 mg/kg, pooled schedules).
For `C=CC(=O)Nc1cc(Nc2nccc(Nc3cc(Cl)c(F)cc3C(C)(C)O)n2)c(OC)cc1N1CC[C@@H](N(C)C)C1`, “patients with fatigue” read 6.3% (human patients; oral, 200 mg, treatment-emergent adverse events).
`CN(C)C(=O)c1cc2cnc(Nc3ccc(N4CCNCC4)cn3)nc2n1C1CCCC1` — result for “patients with adverse event”: 0.3% (refers to: Pulmonary toxicity, AESI; human, HR+/HER2− advanced breast cancer; oral, dose not given, grade 4, CTCAE v4.03).
`N[C@@H]1c2ccccc2OC12CCN(c1cnc3c(N4CCCc5ncccc54)n[nH]c3n1)CC2` — result for “patients with adverse event”: 23% (refers to: fatigue; human advanced or metastatic solid tumours; oral, dose not given, phase Ia all doses).
`Cc1cn([C@H]2O[C@@H](CO[P@@](=O)(N[C@@H](C)C(=O)OC(C)C)Oc3ccccc3)[C@H](O)[C@H]2F)c(=O)[nH]c1=O` — result for “patients with any TEAE”: 17% (human; oral, 10 mg once daily, 28 days).

For quick reference, copied from above:
`CN(C)C(=O)c1cc2cnc(Nc3ccc(N4CCNCC4)cn3)nc2n1C1CCCC1` — result for “patients with adverse event”: 0.3% (refers to: Pulmonary toxicity, AESI; human, HR+/HER2− advanced breast cancer; oral, dose not given, grade 4, CTCAE v4.03).
